Published values from different studies.
Parts stem from different laboratories: compare values within a part only.

Block 1
Target: Phosphate system positive regulatory protein PHO4, full length, GST-tagged (PHO4, Saccharomyces cerevisiae, UniProt P07270, residues 1-312)
Technique: competition protein-binding microarray
Molecule type: double-stranded DNA, one strand shown
Sample: in vitro
Concentration: 2 µM
Setting: whole 60-bp probe, lowest competitor level
Added: Cbf1 competitor, 0.05 µM
Direction: higher = stronger binding
Quantity: fluorescence intensity
Constant ends, left off below: … GTCTTGATTCGCTTGACGCTGCTG
Construct (chain): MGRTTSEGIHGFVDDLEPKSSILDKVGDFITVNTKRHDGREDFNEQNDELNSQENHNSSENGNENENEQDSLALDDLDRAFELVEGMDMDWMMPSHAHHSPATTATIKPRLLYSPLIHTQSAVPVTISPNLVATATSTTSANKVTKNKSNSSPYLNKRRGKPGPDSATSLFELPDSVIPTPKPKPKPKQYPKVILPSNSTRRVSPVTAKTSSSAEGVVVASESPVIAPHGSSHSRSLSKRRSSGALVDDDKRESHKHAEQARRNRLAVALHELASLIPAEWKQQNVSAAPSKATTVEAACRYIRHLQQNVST
AAGAGAAGGACCCGACACGGGTCCCTCTCGATATTA: 6270 a.u.
CACAATGAAAAGGTCCACGTGGTGGGGACTGAGGCC: 18700 a.u.
TCCAACAAATAAAGTTCCGTGATGGTTTAATGGTCA: 3380 a.u.
CATACCCAACCTTGCGTAGTGGGTGAAGATATTTGT: 4590 a.u.
CGTCCTAGTGATTGGAAAGTGGGTGCCATGAGGAAG: 6890 a.u.
AACCGTAACGCTGATAACGTGGATTAGATCTTGGAG: 8410 a.u.
CGTCCTAGTGATTGTCGAGTGGGTGCCATGAGGAAG: 6010 a.u.
CTTCTGTAAATTTGTCACTAGACTTGACGCGCCCCG: 3260 a.u.
CATACCCAACCTTTTCACGTGAAATAAGATATTTGT: 10500 a.u.
ACTATTCGTCCGAGTCACGCATACGTTTGTCAGTGG: 8300 a.u.
CGTCCTAGTGATTGTTCCGTGGGTGCCATGAGGAAG: 7200 a.u.
ACATCATTCAAGCTAAGCGTGATGGCAAGGCTGCTG: 6140 a.u.
CGTCCTAGTGATTGTCACGAGACTTCCATGAGGAAG: 6560 a.u.
TTCTGGAACAATTATCATGTTTCTCATCTGGGTTCT: 3950 a.u.
AACGAATTGAAACGTATCGTGACGGACAATGAAGAA: 5280 a.u.
ACCCGGCATAGAAAGATCGTGATTGTAACGCCCTTG: 5190 a.u.
GAACAAGATTTTTTGCACGTGGTGAGGATGATGAGG: 20700 a.u.
AAAGCGGTAATTTGGCTGGTGGGTGCAGATATCTAT: 4150 a.u.
CGTCCTAGTGATTGCCCTGTGGGTGCCATGAGGAAG: 7050 a.u.

Block 2
Target: Hepatocyte nuclear factor 3-alpha (Foxa1, Mus musculus, UniProt P35582, residues 1-468, full length assumed)
Technique: EMSA with sequencing
Molecule type: double-stranded DNA, one strand shown
Sample: in vitro
Concentration: 10 and 20 nM
Setting: whole designed probe, mean of two concentrations, ends assumed
Relative to: negative control set to 0
Direction: higher = stronger binding
Quantity: normalised bound fraction
Constant ends, left off below: GTGAGCGGTGCCCATTGATGGGGAAC … TTTCACTGGGATCGTGGGGAC
Construct (chain): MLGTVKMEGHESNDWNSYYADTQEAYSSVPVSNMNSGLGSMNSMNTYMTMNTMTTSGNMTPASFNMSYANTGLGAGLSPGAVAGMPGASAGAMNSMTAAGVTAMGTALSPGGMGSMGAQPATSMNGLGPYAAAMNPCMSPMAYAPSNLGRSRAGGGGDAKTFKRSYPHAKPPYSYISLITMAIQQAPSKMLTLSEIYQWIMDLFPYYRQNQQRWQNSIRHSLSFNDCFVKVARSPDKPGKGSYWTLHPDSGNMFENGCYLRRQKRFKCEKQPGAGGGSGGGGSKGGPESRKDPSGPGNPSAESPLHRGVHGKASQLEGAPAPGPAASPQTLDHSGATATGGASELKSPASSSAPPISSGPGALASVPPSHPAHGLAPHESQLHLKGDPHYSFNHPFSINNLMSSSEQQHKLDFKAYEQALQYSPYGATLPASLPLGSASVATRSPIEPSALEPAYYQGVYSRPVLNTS
ACCCATGTTTTAATAATCCAGAACATCAGTTGAGTACAAAATCTCTTTTTCTAATTAAGAATGTTTGACCACATCAGCGAGTTCCTTGCCAACTGTTTACTTAGCCTCAGCAGATATGATGGGCCAGAATTTACACAGAAAAATACCTTCAAATATATTTAGTTTCTTCAGTGCTTTTAGATTGAGAAAATGA: 0.427 ratio
ATCTTCCCCCTCTTCCTTGCCCCACCAGCTCACCTTCCCGGGTTGTTTACTTTGAGGAAATTAATATAAGCCGGCATTCGTTAACCCTCTTCTGGCGCAAACTGCCAGAGCAAACAGATGAATCATGGTCCTTTGGCGACGCCAGGCTCCGGGAGAGCAAAGCACCGTGTCAGGGCCATGATCCGGGGTGGCC: 0.341 ratio
TTCCTTCTGCAGCTTTCCTCCCCAAACTCCACTGGTGCTCAAGATGACTCATCTGTCATTTTCACTTCCTTTCTGGCAGAGTAGCTGAGCTGAGCAATCTACAGAGCAGGTGGACAATAGTCTGGCCTCTGCATGAAGCCACCAGTTCACAGGAAATACAGGGGGCAGAGGAACATGTTAAGTGGCACCTCAG: -0.0797 ratio
TCAACTGTGCCATGTTAGCAGGAAAGCTGCCAGACACAATAAGTACACAAACAGCGTGGCTGTGTTCCAAAAAAACTTTATTTACACACACTTTGTTTACACACATAGGTGGCAAGCTGTAATTTTTTTATGTAATTTATGGTATTTTGCCATAGTTTGCTGACTCTTGATACAAATATGGAGACTTTTAAAG: 0.513 ratio
TGTCCTGGAAGAAGTCCTTATGTGTATGATCTTACTGTAATACCCAGTCTTTATGGACCCATGGCAGTTGACCACTATACTTCATGTACAAAGTAAACATAGGAATGGGAAATGGTATTACTTTGAAAATGGCAACGTGTCCCTAGACTGTTAAGGATCAAATAGTGATGCAAGCAGCATATGTGCTTTTTAA: 0.477 ratio
ATCTTCCCCCTCTTCCTTGCCCCACCAGCTCACCTTCCCGGGTTATTTGCAGATAGGAAAATAAATAAAGCCGGCATTCGTTAACCCTCTTCTGGCGCAAACTGCTGTTTGCTCTGGATGAATCATGGTCCTTTGGCGACGCCAGGCTCCGGGAGAGCAGTAACCGGACTCAGGGCCATGATCCGGGGTGGCC: 0.329 ratio
CCTAATTAATGCTTCTCACACAGCCTTACAAAATATTAGTCACTTAATTATTAACCACATTCATTGGGCTGCACTAGTTGAAAAAGATGTCTTGTTTACTTAGTCAAAGCGCTGTCTCTGTGCAATGGCATTGATGGTGAAATTGATCAGAGTCTACGTTTGAATGAGAGAAGCTGAGGGAGACATTTCAGAA: 0.493 ratio
CCCTCTTCTAACTCAGAAGGGTTGAAGCAGATAATGAAACCAGATACCTATGGGAATTAGTCAGCATTTCTTTATGTGAGTAGTTGTACTTGAGTAATTTTGCAATCCTGTTTACCAATCTATTCTGTTTTACTCAGTTATTTGAACTCTTTTTTCTCTTTAAAAACAGCAAAAGGAATGAAGGAAGGAAAGC: 0.00934 ratio

Block 3
Target: Histone acetyltransferase KAT6A, winged helix 1, GST fusion (KAT6A, Homo sapiens, UniProt Q92794, residues 1-85)
Technique: protein binding microarray
Molecule type: double-stranded DNA, one strand shown
Sample: in vitro
Concentration: not given
Setting: 8-mer, flanks averaged, mean of 2 arrays, mostly near background
Relative to: not given
Direction: higher = stronger binding
Quantity: E-score
Residues (chain): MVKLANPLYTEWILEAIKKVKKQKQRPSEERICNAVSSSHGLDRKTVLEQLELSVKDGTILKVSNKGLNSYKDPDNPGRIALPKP
AAGTCGGC: 0.167
CCACAAAA: -0.129
GATGGCTA: -0.0264
ATCACCGG: 0.0964
CTTATAGA: -0.105
GTAGACCA: -0.1
GTCAATTA: 0.122
ACCCGCAT: 0.226
AATGCGTA: 0.262
CCGCATTC: 0.174
CAAAAGCC: 0.0663
GAATTCTC: -0.0548
CCCAACGC: 0.0966
AGAATATC: -0.0873
CAGCAGGC: 0.0517
GTAGAAAA: -0.213
ATCACGTG: -0.162
CTAAAGCA: -0.0913
GACACGTC: -0.0221

Block 4
Target: RNA binding protein fox-1 homolog 2, RRM domain, GST-SBP tag (RBFOX2, Homo sapiens, UniProt O43251-10, residues 100-194)
Technique: RNA Bind-n-Seq
Molecule type: RNA
Sample: in vitro
Concentration: 365 nM
Setting: natural RNA segment, single round, ends assumed
Relative to: no-protein control
Direction: higher = stronger binding
Quantity: RBNS enrichment (R)
Constant ends, left off below: GGGAGUUCUACAGUCCGACGAUC … UGGAAUUCUCGGGUGCCAA
Target sequence (chain): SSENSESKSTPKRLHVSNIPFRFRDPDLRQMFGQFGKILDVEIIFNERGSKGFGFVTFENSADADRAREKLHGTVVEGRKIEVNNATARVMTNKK
CCCAAGCAAAUCCUGCAUAUUCCAAAUGUAAAGAGUACUCAGUGGGAAAAAGGUUGUUACCUCAAAGUCAUUGCUUCUUUCCUGGCUGGGUCACAGGGUGAAGAGAUGAA: 0.34
UCUUUUUCAAGAGAUUCUGAGGCAGUCCCCACCCAAUCCAAAUAGGUAGCUGCUUGUGCAGGUCCUGUGCCCAUGGCUUGCUGUGGAGGAGUGUGGCUGAUGGCCUGGGA: 0.187
AGUUUUGCCUGUCUAUAAAAGAUGAUAGUAAUUUACCAAGUGACAUUUGCAGAGAAACAGGUGUACAGUUAUCGUUGUACUUUUGUACAAUGUGAAUUUUGUUAAUAAAU: 0.441
GGUACCCUCUUGGCAGAUGGGGGCAUCACUUGCUUCCUUUGGGAAGCUCUAAGGUUGCUGCAGUCACCUUCCUCAUCUUGCAGGUGCUGAACCAACAUCAUCAGUUUCUA: 0.417
GGGGAGAGACUGGACUCUAGCCAGGCAGUCUUGUGCCGGCACGCACAGCUGCACGCACGCAUGCAAGUUCACAGCGCAGGCACCCCCAGCUCGCCUGGAUCUGACUCCAA: 10
UGGGAAUUGUGCCUAUUUAGAUUGCCCCUCCAGUUAAAUACACAUGUAAUCCAAGCCAGAGAUAAGAUGGAAGAACAUUUUUUUUUCAAGUUCACUUGGCCAGUAACUUA: 1
GAGGGAAGCACCUAACCUCUGCUGCUUUGCAAGGAAGGCUCCUUGCAAUCUGGAGAGAGACUCGGUAGGAGUGUGUUGUCUUCUACUCGCAGUGCAUUGAAGGACCCAAG: 0.903
AAAGGUUAUUUGCUCCCGAUUAUAUGAUUCAAGUGUUAUAAGUUUUAGCUUGAACUACUUUGCAGUAAUUUAUUUGACAGAUCUCUAUUCUAUAAAUGUGUAAUGUGAUG: 0.943
GGUGGGUGUGCUUUUCAUAGGCUUCCCUUUGCCUUAAACCUGAAGAUGUCUCCUCAAGCCUGUGGGCAGCAUGCCCAGAUUCCCAGACUAAGACACUGUGACAGUUGUCU: 1.79
CAUGGUGCAUGUGUGUGCAUGCGUGUAUGUGCAGCCGCCCUCCCUCACUUCAGGAGCAAGCUGUUUGCUGUGCUUACCCUUCACCUCAGUGCAGAGGUCUCCAGUGCCGA: 1.59
UGUGAUCACACUACGGGAAUCUCUGUGGUAUAUACCUGGGGCCAUUCUAGGCUCUUUCAAGUGACUUUUGGAAAUCAACCUUUUUUAUUUGGGGGGGAGGAUGGGGAAAA: 0.611
GCCUGAAAAUGUUCAAGACUUAUGUUCAGGGUGGGAUGAUGGAACCGAGGGCUUCAUCAAAGUGAGAGGAAAGGAAAAGCAUCUGGCAUGUGUUUCUUGGAUAGGGGCCA: 2.54

Some of these lines once more (block 1):
AAAGCGGTAATTTGGCTGGTGGGTGCAGATATCTAT: 4150 a.u.
CGTCCTAGTGATTGCCCTGTGGGTGCCATGAGGAAG: 7050 a.u.
CGTCCTAGTGATTGTTCCGTGGGTGCCATGAGGAAG: 7200 a.u.
CGTCCTAGTGATTGGAAAGTGGGTGCCATGAGGAAG: 6890 a.u.
CGTCCTAGTGATTGTCACGAGACTTCCATGAGGAAG: 6560 a.u.
ACTATTCGTCCGAGTCACGCATACGTTTGTCAGTGG: 8300 a.u.
GAACAAGATTTTTTGCACGTGGTGAGGATGATGAGG: 20700 a.u.
